{"data": "Results of several laboratories", "note": "Every numbered part comes from another study and shows a few of its results, in no order."}
{"data": "Series 1", "target": "Prothrombin, mature alpha-thrombin (F2, Homo sapiens, UniProt P00734)", "technique": "aptamer microarray, sandwich", "molecule type": "DNA with 2'F-ANA", "sample": "in vitro", "tested at": "200 nM", "setting": "whole 15-mer aptamer, many near background", "together with": "Cy3 exosite-II aptamer, 400 nM", "reading": "higher = stronger binding", "oligonucleotide": "GGTTGGTGTGGTTGG"}
{"Modification": "2'F-ANA at 1 4 5 8 9 13 14 15", "mean fluorescence intensity [a.u.]": 49.5}
{"Modification": "2'F-ANA at 1 6 13 15", "mean fluorescence intensity [a.u.]": 133}
{"Modification": "2'F-ANA at 2 3 4 5 6 8 10 11 12 14 15", "mean fluorescence intensity [a.u.]": 50}
{"Modification": "2'F-ANA at 2 4 6 10 11 12 13 14 15", "mean fluorescence intensity [a.u.]": 91.6}
{"Modification": "2'F-ANA at 1 2 3 4 5 7 10 11 15", "mean fluorescence intensity [a.u.]": 47.2}
{"data": "Series 2", "target": "Histone acetyltransferase KAT6A, both winged helices, GST fusion (KAT6A, Homo sapiens, UniProt Q92794, residues 1-181)", "technique": "protein binding microarray", "molecule type": "double-stranded DNA, one strand shown", "sample": "in vitro", "tested at": "not given", "setting": "8-mer, flanks averaged, mean of 2 arrays, mostly near background", "baseline": "not given", "reading": "higher = stronger binding", "Construct (chain)": "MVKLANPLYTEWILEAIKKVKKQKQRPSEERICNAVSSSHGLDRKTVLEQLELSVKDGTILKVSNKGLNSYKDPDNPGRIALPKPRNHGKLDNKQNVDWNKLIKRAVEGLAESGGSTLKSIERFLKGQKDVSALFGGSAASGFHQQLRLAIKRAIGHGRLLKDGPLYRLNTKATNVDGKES"}
{"Oligonucleotide": "AGTAAGAC", "E-score": 0.0495}
{"Oligonucleotide": "AACTACGC", "E-score": 0.161}
{"Oligonucleotide": "CGTCACAG", "E-score": 0.129}
{"Oligonucleotide": "CTCTCTGA", "E-score": -0.0641}
{"Oligonucleotide": "ATTCCCGA", "E-score": 0.0637}
{"Oligonucleotide": "CGTGAACG", "E-score": 0.152}
{"Oligonucleotide": "AGGATCAC", "E-score": -0.161}
{"data": "Series 3", "target": "RING finger protein unkempt homolog, zinc fingers 1-6, GST-SBP tag (UNK, Homo sapiens, UniProt Q9C0B0, residues 30-357)", "technique": "RNA Bind-n-Seq", "molecule type": "RNA", "sample": "in vitro", "tested at": "not given", "setting": "RNA with constant flanks, ends assumed", "baseline": "input RNA pool", "reading": "higher = stronger binding", "chain of UniProt Q9C0B0 (30-357, looked up)": "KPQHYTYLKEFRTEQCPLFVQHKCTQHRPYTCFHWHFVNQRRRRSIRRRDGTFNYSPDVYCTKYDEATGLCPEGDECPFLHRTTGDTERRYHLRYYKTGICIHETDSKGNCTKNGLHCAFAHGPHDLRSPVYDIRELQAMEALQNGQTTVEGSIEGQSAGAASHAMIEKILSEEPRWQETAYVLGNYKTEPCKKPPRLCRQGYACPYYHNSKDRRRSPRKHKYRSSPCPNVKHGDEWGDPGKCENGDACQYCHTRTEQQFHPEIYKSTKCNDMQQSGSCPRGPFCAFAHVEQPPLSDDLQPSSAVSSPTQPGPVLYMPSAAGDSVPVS"}
{"Oligonucleotide": "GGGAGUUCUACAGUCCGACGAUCAAAUUUGACUCAAAUGUGAGUGGUCAGUCCUCUUUCGGGACAUCUCCAGCAGCAGACAACACCGAAAAGGAGGCGCUUCCUCGUUAUGAGCCAAUUCCAUUUAGUGCUUCUAUGAACGAGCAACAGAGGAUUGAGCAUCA", "bound/input enrichment [ratio]": 0.261}
{"Oligonucleotide": "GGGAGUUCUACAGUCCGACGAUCACCAUUGGAUUUAAUGUAGAGACGGUGACGUACAAAAACCUUAAAUUCCAAGUCUGGGAUUCCGGAGGACAGACAAGUAUCAGGCCAUACUGGAGAUGUUACUAUUCAAACACAGAUGCACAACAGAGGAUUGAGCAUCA", "bound/input enrichment [ratio]": 0.219}
{"Oligonucleotide": "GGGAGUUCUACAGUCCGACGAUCUAUGAUGCCCUGGUUGCCAUGACUAUCUUUUUCAACACUCAAAAUGAGCCAGUACGGCAAUCCGCUAUCUUCUGUCCACACGAGGCACUUCGAAUGACAAUCUGUGGCAUCCUGGAACGACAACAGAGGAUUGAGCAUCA", "bound/input enrichment [ratio]": 0.148}
{"Oligonucleotide": "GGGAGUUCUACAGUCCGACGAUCAGGAAGAAUCUUUUUGAAAGGCCUUUAUUCAAUACCCAUUUACAGAAGUCCUUUGUAAGCCGCAACUGGGCUGAAACACCAAGACUAGGAAAAAAAAAUGAAAGCUCUUAUUUCCCAGGACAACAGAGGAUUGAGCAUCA", "bound/input enrichment [ratio]": 3.37}
{"Oligonucleotide": "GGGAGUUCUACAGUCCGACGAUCCGGCCCAUGCAGCAAAUGCAGCCCACUGCGCCAAGGAACAGCAAUUUGCGUGAAUUACCCACCGCGCCGUCACACGUGAUAGAAAUGAGCAGCAGCCGCUGCUCUGCCACGCCCUCAGCACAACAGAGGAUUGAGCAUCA", "bound/input enrichment [ratio]": 0.113}
{"data": "Mixed results"}
{"Substance": "PhoQ, residues 284 288 289 292 302 303 SSLVEF", "target": "PhoP, residues 12 14 15 18 19 AWHSL (Escherichia coli, UniProt P23836)", "assay": "Sort-seq, item: YFP reporter", "test system": "E. coli", "conditions": "PhoQ-PhoP variant library, together with: 10 µM Mg2+", "how to read": "baseline: high Mg2+ state, higher = stronger signaling", "measurement": "fold induction", "result": 3.92}
{"note": "Some of these lines once more (series 2):"}
{"Oligonucleotide": "AGTAAGAC", "E-score": 0.0495}
